Results gathered from unrelated publications.
Protocols differ between the studies behind these lines. Values joined by “and” are separate records of one study, mostly repeats; a detail may differ.
Target: Serine/threonine-protein kinase Nek6 (NEK6, Homo sapiens, UniProt Q9HC98)
Chain of UniProt Q9HC98 (whole entry, unmodified, looked up): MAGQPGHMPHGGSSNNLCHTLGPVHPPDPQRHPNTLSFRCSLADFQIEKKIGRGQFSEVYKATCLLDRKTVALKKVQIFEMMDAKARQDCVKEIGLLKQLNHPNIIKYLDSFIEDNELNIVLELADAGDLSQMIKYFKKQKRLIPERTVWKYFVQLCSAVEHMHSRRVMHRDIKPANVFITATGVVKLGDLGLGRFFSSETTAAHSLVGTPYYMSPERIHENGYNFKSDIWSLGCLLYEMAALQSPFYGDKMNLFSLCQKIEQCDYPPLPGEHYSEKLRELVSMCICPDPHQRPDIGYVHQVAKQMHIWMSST

SMILES | assay | setting | scale | measurement | value
COc1ccc(C(=O)/C=C/c2ccccc2-c2c[nH]c3ccc(C#N)cc23)c(O)c1 | enzyme activity, inhibitor | 20 µM | – | inhibition | 4%
O=C=[N][Ru-4]123([n]4c5ccc(O)cc5c5c6c(c7cc(F)c[n+]1c7c54)C(=O)NC6=O)[S+]1CC[S+]2CC[S+]3CC1 (stereo not shown) | enzyme activity | 100 nM, human enzyme, with: 10 µM ATP | reference: untreated | remaining activity | 94%
C=CC(=O)Nc1cccc(-c2cnc3[nH]cc(C(=O)NC(C)(C)C)c3n2)c1 | enzyme activity, inhibitor | 0.1 µM | – | inhibition | 3%
CC(C)=CC1OC(C)(C)C2C=C3C(=O)C(Cl)=CC(O)C3C3C(O)C4OC4C(=O)C132 (stereo not shown) | cell-free assay, competition with immobilised ligand | 10 µM | – | remaining binding | 87%
Cc1cnc2nc1Nc1cccc(c1)COC/C=C/COCc1cc(ccc1OCCN1CCOCC1)N2 | binding | 0.1 µM | – | remaining binding | 87%
NC(=O)[C@@H](O)C[C@H]1CCc2sc3ncnc(O[C@H]4CC[C@H](N5CCOCC5)CC4)c3c21 | enzyme activity, inhibitor | 10 µM | – | inhibition | 1%
COc1cc(Nc2nc(C)cc(-c3cnn4nc(OC)ccc34)n2)cc(C(F)(F)F)c1 | inhibitor | 1 µM | reference: control | remaining activity | 89%
Nc1nc(Nc2ccccc2)sc1C(=O)c1ccccc1 | enzyme activity, inhibitor | 10 µM | – | remaining activity | 60%
CNC(=O)C[C@H](Cc1ccc(C#N)cc1)NC(=O)c1cc(-c2ccc(CN[C@H](C)c3ccc(C)cc3)o2)ccc1Cl | enzyme activity, inhibitor | 1 µM | – | activity vs control | 110%
c1ccc2c(Nc3cc(C4CCC4)[nH]n3)nc(Nc3ccc4nc[nH]c4c3)nc2c1 | enzyme activity, inhibitor | 0.25 µM | – | remaining activity | 91%
C=CC(=O)N1CCCC(n2c(=O)c3ncccc3n(Cc3ccc(Oc4ccccc4)cc3)c2=O)C1 (stereo not shown) | cell-free assay, competition with immobilised ligand | 1 µM | – | remaining binding | 100%
Cc1cccc(-c2ccc3nc(NC(=O)C4CCCO4)nn3c2)c1 (stereo not shown) | enzyme activity, Dundee kinase panel | 10 µM | – | remaining activity | 84%
Cc1cccc(O[C@H]2CCC[C@@H](C(C)CNCc3ccncc3)C2)c1 (relative stereo) | enzyme activity, inhibitor | 10 µM | – | inhibition | -4%
COc1c(OCCCN2CCOCC2)ccc2c1N=C(NC(=O)c1cnc(N)nc1)N1CCN=C21 | kinase activity, inhibitor | 1 µM | reference: untreated control | remaining activity | 114%
COCC12C(=O)NC3C4(C(OC)CC1O)C1CC5(O)C(OC)C(O)C(OC(C)=O)(C1C5OC(=O)c1ccccc1)C3(O)C(OC)C24 (stereo not shown) | kinase activity, inhibitor, ProQinase kinase profiling | 25 µM | reference: control | remaining activity | 114% and 106%
C=CC(=O)N1CCc2ccc(-n3c(=O)ccc4cnc5ccc(-c6cnn(C)c6)cc5c43)cc21 | KINOMEscan | 1 µM | reference: DMSO control | remaining binding | 82%
O=C(Cc1ccc(OCc2ccccc2)cc1)NC1(C(=O)O)CCN(C(=O)c2ccc(-c3cccc(Cl)c3)cc2)CC1 | enzyme activity, inhibitor | 10 µM | – | activity vs control | 108%
Cc1cccc(-c2ccc3nc(NC(=O)C4CCCCC4)nn3c2)c1 | enzyme activity, Dundee kinase panel | 10 µM | – | remaining activity | 88%
Cc1nc2c(F)cc(-c3nc(Nc4ccc(CNC(=O)CCCCCCC(=O)NO)cc4)ncc3F)cc2n1C(C)C | enzyme activity, inhibitor | 1 µM | – | inhibition | 30%

Excerpt of the above:
SMILES | assay | setting | scale | measurement | value
NC(=O)[C@@H](O)C[C@H]1CCc2sc3ncnc(O[C@H]4CC[C@H](N5CCOCC5)CC4)c3c21 | enzyme activity, inhibitor | 10 µM | – | inhibition | 1%
CC(C)=CC1OC(C)(C)C2C=C3C(=O)C(Cl)=CC(O)C3C3C(O)C4OC4C(=O)C132 (stereo not shown) | cell-free assay, competition with immobilised ligand | 10 µM | – | remaining binding | 87%
Cc1cccc(-c2ccc3nc(NC(=O)C4CCCO4)nn3c2)c1 (stereo not shown) | enzyme activity, Dundee kinase panel | 10 µM | – | remaining activity | 84%
